Experimental data from different studies.
Each line is one published result; not all experiments were run side by side.
Organism: Pseudomonas aeruginosa

With `CC(C)(C)OCC1NC(=O)C(C(=O)NC(C(=O)NC2C(=O)N3C2SC(C)(C)C3C(=O)O)c2ccccc2)=C1O` (centres unmarked) the MIC was 25 µg/mL (pqsE mutant).
`CC[C@H](C)[C@H](NC(=O)[C@H](CO)NC(=O)CNC(=O)[C@H](CCCCN)NC(=O)[C@@H](NC(=O)[C@H](CC(N)=O)NC(=O)[C@H](Cc1ccccc1)NC(=O)[C@H](CC(N)=O)NC(=O)[C@@H](NC(=O)[C@H](CCCNC(=N)N)NC(=O)[C@@H]1CCCN1C(=O)[C@H](CCCNC(=N)N)NC(=O)[C@@H](NC(=O)[C@H](CCCNC(=N)N)NC(=O)[C@H](CCCNC(=N)N)NC(=O)[C@@H](NC(=O)[C@H](CCCNC(=N)N)NC(=O)[C@H](CO)NC(=O)[C@H](CC(C)C)NC(=O)[C@H](Cc1ccccc1)NC(=O)[C@H](CCCNC(=N)N)NC(=O)CNC(=O)[C@H](Cc1ccccc1)NC(=O)[C@H](CCCNC(=N)N)NC(=O)CNC(=O)[C@H](CCCNC(=N)N)NC(=O)[C@H](CCC(N)=O)NC(=O)[C@@H](NC(=O)[C@@H](N)CC(C)C)C(C)C)[C@@H](C)CC)[C@@H](C)CC)[C@@H](C)CC)[C@@H](C)CC)C(=O)O` gave an MIC of 9.97 µM (broth microdilution; ATCC 27853, Mueller-Hinton broth; 16 to 20 h, 37 °C).
The MIC of `CC1(C)SC2C(NC(=O)C(NC(=O)C3=C(O)C(Cc4ccsc4)NC3=O)c3ccccc3)C(=O)N2C1C(=O)O` (centres unmarked) is reported as 50 µg/mL (fpvB mutant).
The MIC of `CC(C)C[C@@H](NC(=O)CNC(=O)[C@@H](CCCCN)NC(=O)[C@@H](CC(C)C)NC(=O)[C@@H](CCCCN)NC(=O)[C@@H](CCCNC(=N)N)NC(=O)[C@@H](CC(C)C)NC(=O)[C@@H](CC(C)C)NC(=O)[C@@H](CCCNC(=N)N)NC(=O)[C@H](N)CCCNC(=N)N)C(=O)N[C@H](CCCCN)C(=O)N[C@H](CCCCN)C(=O)N[C@H](Cc1ccc(O)cc1)C(=O)N[C@H](CC(C)C)C(=O)N[C@H](Cc1ccc(O)cc1)C(=O)N[C@H](Cc1ccccc1)C(=O)N[C@H](CCCCN)C(=O)N[C@H](CC(C)C)C(=O)N[C@H](CCC(N)=O)C(=O)N[C@H](CC(C)C)C(=O)N[C@H](CC(C)C)C(=O)N[C@H](CCCCN)C(=O)N[C@H](CCCCN)C(N)=O` is reported as 2 µM (KCTC 1637, Mueller-Hinton broth; 24 h).
With `CC1(C)S[C@@H]2[C@H](NC(=O)C(C(=O)O)c3ccccc3)C(=O)N2[C@H]1C(=O)O` (some centres unmarked) the MIC was 25 µg/mL (fptA mutant).
With `CC[C@H](C)[C@H](NC(=O)CNC(=O)[C@H](CC(=O)O)NC(=O)[C@H](CCCNC(=N)N)NC(=O)[C@@H](NC(=O)[C@H](CC(N)=O)NC(=O)[C@H](CCCNC(=N)N)NC(=O)CNC(=O)[C@@H](NC(=O)[C@H](CCCCN)NC(=O)[C@H](CCC(=O)O)NC(=O)[C@@H](NC(=O)[C@H](CCCCN)NC(=O)[C@H](CCCCN)NC(=O)[C@H](Cc1ccccc1)NC(=O)[C@@H](NC(=O)[C@H](CCCCN)NC(=O)[C@H](Cc1c[nH]c2ccccc12)NC(=O)[C@@H](N)CCCNC(=N)N)[C@@H](C)CC)[C@@H](C)CC)C(C)C)C(C)C)C(=O)N[C@H](C(=O)N[C@@H](CCCCN)C(=O)N[C@@H](C)C(=O)NCC(=O)N1CCC[C@H]1C(=O)N[C@@H](C)C(=O)N[C@H](C(=O)N[C@@H](C)C(=O)N[C@H](C(=O)N[C@H](C(=O)NCC(=O)N[C@@H](CCC(N)=O)C(=O)N[C@@H](C)C(=O)N[C@@H](C)C(=O)N[C@H](C(=O)N[C@H](C(=O)N[C@H](C(=O)N[C@@H](CCCCN)C(N)=O)C(C)C)C(C)C)[C@@H](C)O)C(C)C)C(C)C)C(C)C)[C@@H](C)CC` the MIC was 4 µM (KCCM 11328, Mueller-Hinton broth; 16 h, 37 °C; growth inhibition over 99%).
With `CC[C@H](C)[C@H](N)C(=O)N[C@@H](CC(C)C)C(=O)NCC(=O)N[C@H](CCCNC(=N)N)C(=O)N[C@H](C(=O)N[C@@H](Cc1ccccc1)C(=O)N[C@@H](CCCCN)C(=O)NCC(=O)N[C@H](C(=O)N[C@@H](CCCCN)C(=O)N[C@@H](CC(=O)O)C(=O)N[C@H](C(=O)N[C@@H](CC(C)C)C(N)=O)[C@@H](C)CC)[C@@H](C)CC)[C@@H](C)CC` the MIC was 50 µM (broth microdilution; ATCC BAA-427, Mueller-Hinton broth; 16 h, 37 °C).
`C[C@@H](O)[C@H]1C(=O)N2C(C(=O)O)=C(S[C@@H]3CN[C@H](C(=O)N(C)C)C3)[C@H](C)[C@H]12` gave an MIC of 8 µg/mL (1188712, multidrug-resistant).
`CC[C@H](C)[C@H](NC(=O)CNC(=O)[C@H](CC(=O)O)NC(=O)[C@H](CCCNC(=N)N)NC(=O)[C@@H](NC(=O)[C@H](CC(N)=O)NC(=O)[C@H](CCCNC(=N)N)NC(=O)CNC(=O)[C@@H](NC(=O)[C@H](CCCCN)NC(=O)[C@H](CCC(=O)O)NC(=O)[C@@H](NC(=O)[C@H](CCCCN)NC(=O)[C@H](CCCCN)NC(=O)[C@H](Cc1ccccc1)NC(=O)[C@@H](NC(=O)[C@H](CCCCN)NC(=O)[C@H](Cc1c[nH]c2ccccc12)NC(=O)[C@@H](N)CCCNC(=N)N)[C@@H](C)CC)[C@@H](C)CC)C(C)C)C(C)C)C(=O)N[C@H](C(=O)N[C@@H](CCCCN)C(=O)N[C@@H](C)C(=O)NCC(=O)NCC(=O)N[C@@H](C)C(=O)N[C@H](C(=O)N[C@@H](C)C(=O)N[C@H](C(=O)N[C@H](C(=O)NCC(=O)N[C@@H](CCC(N)=O)C(=O)N[C@@H](C)C(=O)N[C@@H](C)C(=O)N[C@H](C(=O)N[C@H](C(=O)N[C@H](C(=O)N[C@@H](CCCCN)C(N)=O)C(C)C)C(C)C)[C@@H](C)O)C(C)C)C(C)C)C(C)C)[C@@H](C)CC` has an MIC of 4 µM (KCCM 11328, Mueller-Hinton broth; 16 h, 37 °C; growth inhibition over 99%).
The MIC of `CC[C@H](C)[C@H](NC(=O)[C@H](CC(C)C)NC(=O)[C@H](CCCCN)NC(=O)[C@@H](NC(=O)[C@H](C)NC(=O)[C@H](CCC(=O)O)NC(=O)[C@H](Cc1c[nH]cn1)NC(=O)[C@@H](NC(=O)[C@H](CCCCN)NC(=O)[C@H](CCC(N)=O)NC(=O)[C@H](Cc1ccccc1)NC(=O)[C@@H](N)C(C)C)[C@@H](C)CC)[C@@H](C)CC)C(N)=O` is reported as greater than 128 µM (CLSI broth microdilution; ATCC 27853; 18 h, 37 °C).
With `CC[C@H](C)[C@H](NC(=O)[C@H](Cc1ccccc1)NC(=O)[C@@H](NC(=O)[C@H](Cc1ccccc1)NC(=O)[C@@H]1CCCN1C(=O)[C@@H](NC(=O)[C@H](C)N)[C@@H](C)CC)[C@@H](C)CC)C(=O)N[C@@H](Cc1c[nH]c2ccccc12)C(=O)N[C@@H](CCCNC(=N)N)C(=O)N[C@@H](CC(C)C)C(=O)N[C@@H](CC(C)C)C(=O)N[C@@H](CCCNC(=N)N)C(=O)N[C@@H](CCCCN)C(=O)NCC(N)=O` the MIC was 15 µM (broth microdilution; PAO1; 18 h, 37 °C).
For `CC1(C)SC2C(NC(=O)C(NC(=O)C3=C(O)C(Cc4ccccc4)NC3=O)c3ccccc3)C(=O)N2C1C(=O)O` (centres unmarked), the MIC was 12.5 µg/mL (fptA mutant).
With `CC[C@H](C)[C@H](NC(=O)[C@H](CC(C)C)NC(=O)[C@H](CC(C)C)NC(=O)[C@H](CC(C)C)NC(=O)[C@@H](NC(=O)[C@@H](NC(=O)[C@H](CCCNC(=N)N)NC(=O)[C@H](CCCNC(=N)N)NC(=O)[C@H](CCCNC(=N)N)NC(=O)[C@H](CCCNC(=N)N)NC(=O)[C@H](CC(C)C)NC(=O)[C@H](CCCNC(=N)N)NC(=O)[C@H](CO)NC(=O)[C@@H](N)CO)[C@@H](C)CC)C(C)C)C(=O)N[C@@H](CO)C(=O)N[C@@H](CCCNC(=N)N)C(=O)N[C@@H](CCCNC(=N)N)C(=O)N[C@@H](CCCNC(=N)N)C(=O)N[C@@H](CCCNC(=N)N)C(N)=O` the MIC was 8 µM (broth microdilution; ATCC 27853; highest value reported).
The MIC of `N=C(N)NCCC[C@H](NC(=O)[C@H](Cc1c[nH]c2ccccc12)NC(=O)[C@@H](N)CCCNC(=N)N)C(=O)N[C@@H](Cc1c[nH]c2ccccc12)C(=O)N[C@@H](Cc1ccccc1)C(=O)N[C@@H](CCC(N)=O)C(=O)N[C@@H](Cc1ccccc1)C(=O)N[C@@H](CCC(N)=O)C(=O)N[C@@H](Cc1ccccc1)C(=O)N[C@@H](CCCCN)C(N)=O` is reported as 280 µM (broth microdilution, optical density).
For `CC[C@H](C)[C@H](NC(=O)CNC(=O)[C@H](CC(=O)O)NC(=O)[C@H](CCCNC(=N)N)NC(=O)[C@@H](NC(=O)[C@H](CC(N)=O)NC(=O)[C@H](CCCNC(=N)N)NC(=O)CNC(=O)[C@@H](NC(=O)[C@H](CCCCN)NC(=O)[C@H](CCC(=O)O)NC(=O)[C@@H](NC(=O)[C@H](CCCCN)NC(=O)[C@H](CCCCN)NC(=O)[C@H](Cc1ccccc1)NC(=O)[C@@H](NC(=O)[C@H](CCCCN)NC(=O)[C@H](Cc1c[nH]c2ccccc12)NC(=O)[C@@H](N)CCCNC(=N)N)[C@@H](C)CC)[C@@H](C)CC)C(C)C)C(C)C)C(=O)N[C@H](C(=O)N[C@@H](CCCCN)C(=O)N[C@@H](C)C(=O)N1CCC[C@H]1C(=O)N1CCC[C@H]1C(=O)N[C@@H](C)C(=O)N[C@H](C(=O)N[C@@H](C)C(=O)N[C@H](C(=O)N[C@H](C(=O)NCC(=O)N[C@@H](CCC(N)=O)C(=O)N[C@@H](C)C(=O)N[C@@H](C)C(=O)N[C@H](C(=O)N[C@H](C(=O)N[C@H](C(=O)N[C@@H](CCCCN)C(N)=O)C(C)C)C(C)C)[C@@H](C)O)C(C)C)C(C)C)C(C)C)[C@@H](C)CC`, the MIC was 64 µM (KCCM 11328, Mueller-Hinton broth; 16 h, 37 °C; growth inhibition over 99%).
`CC1(C)SC2C(NC(=O)C(NC(=O)C3=C(O)CN(c4ccccc4)C3=O)c3ccccc3)C(=O)N2C1C(=O)O` (centres unmarked) gave an MIC of 50 µg/mL (fptA mutant).
For `CC[C@H](C)[C@H](NC(=O)[C@H](CCCCN)NC(=O)[C@H](Cc1c[nH]c2ccccc12)NC(=O)[C@H](Cc1c[nH]c2ccccc12)NC(=O)[C@H](CCCCN)NC(=O)[C@H](CCCCN)NC(=O)[C@H](CCCCN)NC(=O)[C@H](Cc1c[nH]c2ccccc12)NC(=O)[C@H](CCCCN)NC(=O)[C@H](CCCCN)NC(=O)[C@H](Cc1c[nH]c2ccccc12)NC(=O)[C@H](CCCCN)NC(=O)[C@H](CCCCN)NC(=O)[C@@H](NC(=O)[C@@H](NC(=O)[C@H](CCCCN)NC(=O)[C@@H](N)CCCNC(=N)N)[C@@H](C)CC)[C@@H](C)CC)C(=O)N[C@@H](Cc1c[nH]c2ccccc12)C(=O)N[C@@H](Cc1c[nH]c2ccccc12)C(=O)N[C@@H](CCCCN)C(=O)NCCOCCOCC(N)=O`, the MIC was 1.9 µg/mL (broth microdilution; 10145).
`CC[C@H](C)[C@H](NC(=O)[C@H](CC(C)C)NC(=O)[C@@H](NC(=O)[C@@H](NC(=O)[C@@H](NC(=O)[C@H](CCCCN)NC(=O)[C@H](CCCCN)NC(=O)[C@H](CCCCN)NC(=O)[C@@H](N)CCCCN)C(C)C)[C@@H](C)CC)[C@@H](C)CC)C(=O)N[C@@H](CO)C(=O)N[C@@H](CC(C)C)C(=O)N[C@@H](CCCCN)C(=O)N[C@@H](CCCCN)C(=O)N[C@@H](CCCCN)C(=O)N[C@@H](CCCCN)C(=O)N[C@@H](Cc1ccccc1)C(=O)N[C@@H](CO)C(=O)N[C@@H](C)C(=O)N[C@@H](Cc1ccc(O)cc1)C(N)=O` has an MIC of 8 µM (broth microdilution; ATCC 27853; highest value reported).
With `CC(C)(C)Oc1ccc(CC2NC(=O)C(C(=O)NC(C(=O)NC3C(=O)N4C3SC(C)(C)C4C(=O)O)c3ccccc3)=C2O)cc1` (centres unmarked) the MIC was 25 µg/mL (fpvB mutant).
For `C[C@@H](O)[C@H](NC(=O)[C@H](Cc1c[nH]c2ccccc12)NC(=O)[C@H](Cc1c[nH]c2ccccc12)NC(=O)[C@H](Cc1c[nH]c2ccccc12)NC(=O)[C@@H](NC(=O)[C@H](Cc1c[nH]c2ccccc12)NC(=O)[C@H](CCCNC(=N)N)NC(=O)[C@@H](N)CCCNC(=N)N)[C@@H](C)O)C(=O)N[C@@H](Cc1c[nH]c2ccccc12)C(=O)N[C@@H](CCCNC(=N)N)C(=O)N[C@@H](CCCNC(=N)N)C(N)=O`, the MIC was 4 µM (broth microdilution; 27853, Mueller-Hinton broth; 24 h, 37 °C, lowest concentration, 95% inhibition, added: BSA).
